Measured values pooled from the literature.
Lines come from different studies, so protocols differ. Values joined by “and” are separate records of one study, mostly repeats; a detail may differ. ± marks the error that the study gave.

The remaining compound of Cc1ccc(OCC(=O)N(Cc2cccs2)c2ccn[nH]2)cc1 is reported as 100 (dog plasma; 750 ng/mL, 2 h, 37 °C, unit not given; baseline: time zero).
CC[C@H](C)[C@@H](C(=O)N[C@@H](CC(C)C)C(=O)N[C@@H](CO)C(=O)N[C@@H](CO)C(=O)N[C@H](C(=O)N[C@@H](CC(N)=O)C(=O)N[C@H](C(=O)NCC(=O)N[C@@H](CO)C(=O)N[C@@H](CC(N)=O)C(=O)N[C@H](C(=O)N1CCC[C@H]1C(N)=O)[C@@H](C)O)C(C)C)[C@@H](C)O)N(C)C(=O)[C@H](C)NC(=O)CN(C)C(=O)[C@H](Cc1ccccc1)NC(=O)[C@H](CO)NC(=O)[C@H](CO)NC(=O)[C@H](Cc1c[nH]cn1)NC(=O)[C@H](Cc1c[nH]cn1)NC(=O)[C@H](CC(C)C)NC(=O)[C@H](Cc1ccccc1)NC(=O)[C@H](CCC(=O)O)NC(=O)[C@H](C)NC(=O)[C@H](CC(C)C)NC(=O)[C@H](CCCNC(=N)N)NC(=O)[C@H](CCC(N)=O)NC(=O)[C@@H](NC(=O)[C@H](C)NC(=O)[C@@H]1CSSC[C@H](NC(=O)[C@H](CCCNC(=N)N)NC(=O)CC[C@H](NC(=O)CCCCCCCCCCCCCCCCCCC(=O)O)C(=O)O)C(=O)N[C@@H](CC(N)=O)C(=O)N[C@@H]([C@@H](C)O)C(=O)N[C@@H](C)C(=O)N[C@@H]([C@@H](C)O)C(=O)N1)[C@@H](C)O — result for “main peak area remaining”: 92% (RP-HPLC; water; 1.0 mg/mL, 7 days, pH 7.5, 40 °C).
For C=CC(=O)Nc1cc(Nc2nccc(-c3cn(C)c4ccccc34)n2)c(OC)cc1N(C)CCNC, the recovery was 98.1% (storage stability; human plasma; 72 h, -80 °C, medium QC level).
The tracer uptake of CN(Cc1ccccc1)C(=O)CN1CCN(CC(=O)[O-])CCN(CC(=O)N(C)Cc2ccccc2)CC1.[44Sc+3] is reported as 6.14 %ID/g (mouse, kidney; intravenous, 1 h).
For CC(C)n1ncc2c(C(=O)NC[C@@H](C)N)cc(C3CC3)nc21, the concentration was 1080 ng/mL (female BALB/c mouse, plasma; intraperitoneal, 30 mg/kg, 2 h).
O=S1(=O)CC2CCCCC2CS1 (stereo not drawn) gave a solubility of 43.1 mM (phase solubility, NMR; water; 25 °C, with: hydroxypropyl-β-cyclodextrin 399 mM).
The tracer uptake of O=C([O-])CN1CCN(CC(=O)[O-])CCN(Cc2cccc(C(=O)[O-])n2)CC1.[18F-].[Sc+3] is reported as 0.25 %ID/g (mouse, lung; intravenous, 1 h).
C/C(N)=N/C(=N\S(=O)(=O)c1ccc(C(F)(F)F)cc1)N1C[C@H](c2ccccc2)C(c2ccc(Cl)cc2)=N1 has an AUC(0-inf) of 26500 ng·h/mL (C57BL/6 mouse, heart; intravenous, 10 mg/kg, observed value).
The serum stability of CC[C@H](C)[C@H](NC(=O)[C@H](Cc1ccccc1)NC(=O)[C@H](CCC(=O)O)NC(=O)[C@H](CCCCN)NC(=O)[C@H](C)NC(=O)[C@H](C)NC(=O)[C@H](CCC(N)=O)NC(=O)CNC(=O)[C@H](CCC(=O)O)NC(=O)[C@H](CC(C)C)NC(=O)[C@H](Cc1ccc(O)cc1)NC(=O)[C@H](CO)NC(=O)[C@H](CO)NC(=O)[C@@H](NC(=O)[C@H](CC(=O)O)NC(=O)[C@H](CO)NC(=O)[C@@H](NC(=O)[C@H](Cc1ccccc1)NC(=O)[C@@H](NC(=O)CNC(=O)[C@H](CCC(=O)O)NC(=O)[C@H](C)NC(=O)[C@@H](N)Cc1c[nH]cn1)[C@@H](C)O)[C@@H](C)O)C(C)C)C(=O)N[C@@H](C)C(=O)N[C@@H](Cc1c[nH]c2ccccc12)C(=O)N[C@@H](CC(C)C)C(=O)N[C@H](C(=O)N[C@@H](CCCCN)C(=O)NCC(=O)N[C@@H](CCCNC(=N)N)C(N)=O)C(C)C is reported as under 24 h (human serum; 37 °C).
Cc1noc(C)c1Cn1cc(N2C(=O)CN(Cc3cccc(OS(=O)(=O)O)c3)C2=O)cn1 has a plasma concentration of 2570 ng/mL (Sprague-Dawley rat, male; oral, 100 mg/kg of parent drug, 12 h).
The tissue uptake of COc1cccc(OC)c1-c1cc(C(=O)NC2(C(=O)O)C3CC4CC(C3)CC2C4)nn1-c1ccc(C(=O)N(C)CCCN(C)CCCN(C)C(=O)[C@H](CCCCNC(=O)[C@H](CC(C)C)NC(=O)C2OC2C(=O)O)NC(=O)CN2CCN(CC(=O)[O-])CCN(CC(=O)[O-])CCN(CC(=O)[O-])CC2)cc1C(C)C.[177Lu+3] (mixture of isomers) is reported as 0.32 %ID/g (mouse, HT-29 xenograft, lung; 72 h post injection).
For O=C(NS(=O)(=O)c1cccs1)c1cc2ccccc2n1Cc1ccc(Br)c2ccccc12, the body weight was 36.5 g and 30 g and 34.6 g and 37.7 g and 32.2 g and 33.6 g (KM mouse, chronic hyperuricaemia model; dose not given, day 17).
COc1ccc2c(c1)CCn1c[n+]3c(c1-2)-c1ccc(OC)cc1CC3 — result for “red cell distribution width”: 15 ± 0.36% (female NSG mice, blood; 6 mg/kg, day 20, 5 days per week).
CN(Cc1ccccc1)C(=O)CN1CCN(CC(=O)[O-])CCN(Cc2cccc(C(=O)[O-])n2)CC1.[44Sc+3] gave a tracer uptake of 0.06 %ID/g (mouse, brain; intravenous, 1 h).
N#C[C@@H]1CCCN1C(=O)CNC(=O)c1ccnc2ccc(OCCCN3CCN(C(=O)CCc4ccc(O)c(CN5CCN6CC(=O)[O][Al-]([18F])([O]C(=O)C5)[O]c5ccc(CCC(=O)N7CCN(CCCOc8ccc9nccc(C(=O)NCC(=O)N%10CCC[C@H]%10C#N)c9c8)CC7)cc5C6)c4)CC3)cc12 (stereo partly drawn) gave a tumour-to-organ ratio of 16.8 ± 3.47 (BALB/c nude mice, U-87 MG tumour; 120 min post-injection; baseline: tumour over muscle).
O=C(Nc1cnccc1-c1ccc([18F])cc1)c1ccnc(NC(=O)C2CC2)c1 has an SUV of 2.4 (mice, transgenic, GSK-3β, early-stage, liver; intravenous, dose not given, 120 min).
The solubility of O=c1c2ccccc2[se]n1CCCCCCn1[se]c2ccccc2c1=O is reported as 1.3 ± 0.47 µg/mL (shake-flask, RP-HPLC; sodium acetate buffer; 24 h, pH 4.5, 25 °C).
With CN(Cc1ccccc1)C(=O)CN1CCN(CC(=O)[O-])CCN(CC(=O)[O-])CC1.[44Sc+3] the tracer uptake was 1.06 %ID/g (mouse, stomach; intravenous, 1 h).
CC(C)(O)c1ccc(N2Cc3c(ccnc3-c3ccc(F)cc3OCC(F)(F)F)C2=O)cc1 gave a concentration of 16900 ng/mL (male C57BL/6 mouse, plasma; oral, 300 mg/kg, 6 h).
With C=CC(=O)Nc1cc(Nc2nccc(-c3c[nH]c4ccccc34)n2)c(OC)cc1N(C)CCN(C)C the recovery was 88.6% (storage stability; human dried blood spot; 2 h, -80 °C, MQC level).
CCn1nc(Cl)c2c1-c1cnc(N)c(c1)O[C@H](C)c1cc(F)ccc1-c1nn(C)cc1C2 — result for “free plasma concentration”: 3.48 nM (Balb/c nude mouse, female, plasma; 0.5 mg/kg twice daily for 5 days, 12 h).
With COc1cccc(OC)c1-c1cc(C(=O)NC2(C(=O)O)C3CC4CC(C3)CC2C4)nn1-c1ccc(C(=O)NCCNC(=O)[C@H](CCCCNC(=O)[C@H](CC(C)C)NC(=O)C2OC2C(=O)O)NC(=O)CN2CCN(CC(=O)[O-])CCN(CC(=O)[O-])CCN(CC(=O)[O-])CC2)cc1C(C)C.[177Lu+3] (mixture of isomers) the tissue uptake was 1.2 %ID/g (mouse, HT-29 xenograft, spleen; 4 h post injection).
Under “elimination rate constant”, COC1C=COC2(C)Oc3c(C)c(O)c4c(c3C2=O)C2=NC3(CCN(CC(C)C)CC3)NC2=C(NC(=O)C(C)=CC=CC(C)C(O)C(C)C(O)C(C)C(OC(=O)Nc2cccnn2)C1C)C4=O (stereo not drawn) is recorded as 7.78e-05 s⁻¹ (CD-1 mouse female, plasma; intravenous, 5 mg/kg).
C=C(NC(=O)c1csc(-c2nc3c(cc2O)-c2nc(cs2)C(=O)NC(C(C)O)C(=O)NC(=C(C)OC)c2nc(cs2)C(=O)NC2c4nc(cs4)C(=O)NC(COC(=O)c4c5c6c(cccc6n4O)COC(=O)C(OC4CC(C)(O)C(N(C)C)C(C)O4)C2OC5)c2nc-3cs2)n1)C(N)=O (stereo not drawn) gave an AUC(0-t) of 2090 ng·h/mL (Sprague-Dawley rats, both sexes, plasma; intravenous infusion, 6 mg/kg, single dose).
Under “AUC(0-inf) per dose”, Cc1nn(-c2nc3c(F)cc(F)cc3s2)c(O)c1C(c1ccc(C(F)(F)F)cc1)c1c(C)nn(-c2nc3c(F)cc(F)cc3s2)c1O is recorded as 24400 kg·ng·h/mL/mg and 9670 kg·ng·h/mL/mg and 7900 kg·ng·h/mL/mg (ICR mouse, plasma; iv, 5 mg/kg).
O=C(Nc1cnccc1-c1ccc([18F])nc1)c1ccnc(NC(=O)C2CC2)c1 gave an SUV of 16 (ex vivo gamma counting; GSK-3β transgenic mice, early-stage, feces; intravenous, 120 min, mean, P-gp inhibitor pretreatment, with: tariquidar 15 mg/kg iv).
COc1cccc(OC)c1-c1cc(C(=O)NC2(C(=O)O)C3CC4CC(C3)CC2C4)nn1-c1ccc(C(=O)N(C)CCOCCN(C)C(=O)[C@H](CCCCNC(=O)[C@H](CC(C)C)NC(=O)C2OC2C(=O)O)NC(=O)CN2CCN(CC(=O)[O-])CCN(CC(=O)[O-])CCN(CC(=O)[O-])CC2)cc1C(C)C.[177Lu+3] (mixture of isomers) has a tumour-to-muscle ratio of 41.1 (mouse, HT-29 xenograft; 72 h post injection, biodistribution; baseline: tumour over muscle uptake).
The unbound AUC(0-tau) of CC(C)c1cnc(-c2cc(Cl)ccc2F)cc1Nc1ccncc1C(=O)NC(CO)CO is reported as 0.0642 µM·h (female C57BL/6 mice, plasma; oral, 10 mg/kg twice daily, day 1, MC-38 tumour-bearing, tau 8 h).
CC(=O)N([O-])CCCCCNC(=O)CCC(=O)N([O-])CCCCCNC(=O)CCC(=O)N([O-])CCCCCN.[89Zr+4] has an intact complex of 100% (radio-TLC; aqueous buffer; 1 d, pH 8.5, 37 °C, 89Zr-labelled complex, with: DTPA 100-fold excess).
With CCn1cc(-c2cc(Cn3ccnc3)cc3c2CCN([C@H](c2cc(OC)ccn2)C2CC2)C3=O)c(C(F)(F)F)n1 the MRT(0-inf) was 1.4 h (male CD-1 mouse, plasma; oral, 10 mg/kg).
The AUC(0-last) of CC[C@H](C)[C@@H]1NC(=O)[C@H](Cc2ccc(O)cc2)NC(=O)CCCSC[C@@H](C(=O)N(CC(=O)N[C@@H](CC(C)C)C(=O)NCC(N)=O)Cc2ccc(F)cc2)NC(=O)[C@H](CC(N)=O)NC(=O)[C@H](CCC(N)=O)NC1=O is reported as 0.127 ng·h/mL (healthy human females, plasma; intranasal, 400 µg single dose).
Cc1cc(-c2ccc(C(=O)[C@@H]3CCCC[C@H]3C(=O)Nc3cnn4c3C(=O)NCC4)cc2)[nH]n1 — result for “cumulative radioactivity recovery”: 4.14% and 5.28% and 4.36% and 4.58% and 4.62% and 5.48% (human, urine; oral, 200 mg, 0-12 h; baseline: dose).
For CN([O-])C(=O)CN1CCNCCN(CC(=O)N(C)[O-])CC1.[89Zr+4], the intact complex was 100% (radio-TLC; human serum; 3 days, run 1).
Cc1ncsc1-c1ccc(CNC(=O)[C@@H]2C[C@@H](O)CN2C(=O)[C@@H](NC(=O)COCC(C)(COCCOCCOCCNC(=O)C[C@@H]2N=C(c3ccc(Cl)cc3)c3c(sc(C)c3C)-n3c(C)nnc32)COCCOCCOCCNC(=O)C[C@@H]2N=C(c3ccc(Cl)cc3)c3c(sc(C)c3C)-n3c(C)nnc32)C(C)(C)C)cc1 has a concentration of 319 ng/mL (male C57BL/6 mouse, plasma; subcutaneous, 5 mg/kg, 4.98 min, single dose).
With O=C1NC2(CC2)COc2ncc(F)cc2[C@H]2COCCN2c2ccn3ncc1c3n2 the micronucleus rate was 0.65 ± 0.22 ‰ (bone marrow micronucleus test; NIH mice, female; oral, 20 mg/kg/day, 3 days).
COc1ccc2c(c1)C(C)(C)C(/C=C/C1=C(Oc3ccc(C(=O)NCCCCOc4cc(CN(Cc5ccccn5)Cc5ccccn5)cc(CN(Cc5ccccn5)Cc5ccccn5)c4)cc3)C(=C/C=C3/N(CCCCS(=O)(=O)[O-])c4ccc(OC)cc4C3(C)C)CCC1)=[N+]2CCCCS(=O)(=O)[O-].O=[N+]([O-])[O-].O=[N+]([O-])[O-].[99Tc+].[C-]#[O+].[C-]#[O+].[C-]#[O+].[Zn+2] has an intact compound of 98.7% (radio-TLC; formulation buffer; 2 h, room temperature).
With O=C([O-])CN1CCN(CC(=O)[O-])CCN(CC(=O)[O-])CC1.[44Sc+3] the tracer uptake was 0.22 %ID/g (mouse, lung; intravenous, 1 h).
The radiochemical purity of N#C[C@@H]1CC(F)(F)CN1C(=O)CNC(=O)c1ccnc2ccc(OCCCN3CCN(C(=O)CCc4ccc(O)c(CN5CCN6CC(=O)[O][Al-]([18F])([O]C(=O)C5)[O]c5ccc(CCC(=O)N7CCN(CCCOc8ccc9nccc(C(=O)NCC(=O)N%10CC(F)(F)C[C@H]%10C#N)c9c8)CC7)cc5C6)c4)CC3)cc12 (stereo partly drawn) is reported as 61.3 ± 4.7% (radio-TLC; CD-1 mice, plasma; intravenous, 120 min post-injection).
Under “fluorescence quantum yield”, CCCCN1C(=O)c2cccc3c(NCCCCN4CCOCC4)ccc(c23)C1=O is recorded as 0.3 (ethyl acetate).
